Values quoted from earlier work, collected from citations in different studies.
Compare with care: the assays were run in different laboratories.

[2H]C([2H])([2H])C([2H])([2H])C([2H])([2H])OC(C(=O)OC1CCNCC1)(c1ccccc1)c1ccccc1
hepatic CYP3A activity (CYP3A, human; healthy human; 3 mg): no effect

O=C(OCC[18F])C1C2CCC(CC1c1ccc(/C=C\I)cc1)N2 (centres unmarked)
time to peak uptake (SERT; microPET; anaesthetised, caudate): 105 min

CCCCCC1=C(NCC)C(=O)C(C/C=C(\C)CCC=C(C)C)=C(O)C1=O
inhibition (cytochrome P450 isoforms; concentration not given): no inhibition

O=C(O)CN1CCN(CC(=O)NCCN(Cc2ccccn2)Cc2ccccn2)CCN(CC(=O)O)CCN(CC(=O)NCCN(Cc2ccccn2)Cc2ccccn2)CC1.[Gd+3]
Kd (Albumin (ALB, Homo sapiens, UniProt P02768); binding): 42 µM

COC(=O)[C@@H](N)CS
pKa (thiol group): 7

CC[C@H](C)C(=O)N1CCC(NC(=O)Nc2ccc(OC(F)(F)F)c(F)c2)CC1
IC50 (OAT3; inhibitor): 9.1 µM

CC(=O)NC(CS)C(=O)O (centres unmarked)
pKa (thiol group): 9.5

CC(C)C[C@H](NC(=O)[C@H](Cc1ccccc1)NC(=O)CNC(=O)CNC(=O)[C@@H](N)Cc1ccc(O)cc1)C(=O)O
half-life (aminopeptidase N; substrate; human plasma; 0.50 U/mL enzyme): 41.4 s

For quick reference, copied from above:
CC(C)C[C@H](NC(=O)[C@H](Cc1ccccc1)NC(=O)CNC(=O)CNC(=O)[C@@H](N)Cc1ccc(O)cc1)C(=O)O
half-life (aminopeptidase N; substrate; human plasma; 0.50 U/mL enzyme): 41.4 s
